Experimental data gathered from unrelated publications.
A part holds a random share of what one study measured.
Sequence of UniProt P42336 (whole entry, unmodified, looked up): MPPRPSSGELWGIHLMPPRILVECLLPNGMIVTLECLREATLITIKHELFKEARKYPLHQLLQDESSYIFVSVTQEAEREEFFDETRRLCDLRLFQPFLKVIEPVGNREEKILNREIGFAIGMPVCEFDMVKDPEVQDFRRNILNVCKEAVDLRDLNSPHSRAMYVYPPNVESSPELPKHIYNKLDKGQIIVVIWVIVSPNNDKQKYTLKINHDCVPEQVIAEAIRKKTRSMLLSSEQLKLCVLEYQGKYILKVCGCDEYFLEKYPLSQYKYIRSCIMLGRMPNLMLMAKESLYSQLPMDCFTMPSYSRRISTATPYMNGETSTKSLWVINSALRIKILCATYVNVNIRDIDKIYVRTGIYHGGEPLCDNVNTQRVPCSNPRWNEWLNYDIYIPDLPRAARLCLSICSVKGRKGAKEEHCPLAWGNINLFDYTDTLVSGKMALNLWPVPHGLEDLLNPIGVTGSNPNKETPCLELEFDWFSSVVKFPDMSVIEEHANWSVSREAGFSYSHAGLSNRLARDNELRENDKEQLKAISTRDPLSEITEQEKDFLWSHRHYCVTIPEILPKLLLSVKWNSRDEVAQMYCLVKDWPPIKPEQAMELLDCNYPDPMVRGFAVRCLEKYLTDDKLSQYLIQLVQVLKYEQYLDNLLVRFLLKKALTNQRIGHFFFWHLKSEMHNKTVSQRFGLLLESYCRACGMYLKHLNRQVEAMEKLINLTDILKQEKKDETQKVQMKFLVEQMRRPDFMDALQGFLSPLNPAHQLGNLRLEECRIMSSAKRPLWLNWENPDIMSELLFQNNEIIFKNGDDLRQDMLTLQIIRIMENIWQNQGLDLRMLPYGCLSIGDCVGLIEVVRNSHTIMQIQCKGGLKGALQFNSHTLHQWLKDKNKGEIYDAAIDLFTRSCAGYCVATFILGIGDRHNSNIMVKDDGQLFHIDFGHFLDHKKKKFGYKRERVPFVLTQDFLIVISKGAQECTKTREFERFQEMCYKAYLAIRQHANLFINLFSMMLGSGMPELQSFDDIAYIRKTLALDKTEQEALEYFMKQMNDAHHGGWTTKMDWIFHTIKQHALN
Sequence of UniProt Q13164 (whole entry, looked up): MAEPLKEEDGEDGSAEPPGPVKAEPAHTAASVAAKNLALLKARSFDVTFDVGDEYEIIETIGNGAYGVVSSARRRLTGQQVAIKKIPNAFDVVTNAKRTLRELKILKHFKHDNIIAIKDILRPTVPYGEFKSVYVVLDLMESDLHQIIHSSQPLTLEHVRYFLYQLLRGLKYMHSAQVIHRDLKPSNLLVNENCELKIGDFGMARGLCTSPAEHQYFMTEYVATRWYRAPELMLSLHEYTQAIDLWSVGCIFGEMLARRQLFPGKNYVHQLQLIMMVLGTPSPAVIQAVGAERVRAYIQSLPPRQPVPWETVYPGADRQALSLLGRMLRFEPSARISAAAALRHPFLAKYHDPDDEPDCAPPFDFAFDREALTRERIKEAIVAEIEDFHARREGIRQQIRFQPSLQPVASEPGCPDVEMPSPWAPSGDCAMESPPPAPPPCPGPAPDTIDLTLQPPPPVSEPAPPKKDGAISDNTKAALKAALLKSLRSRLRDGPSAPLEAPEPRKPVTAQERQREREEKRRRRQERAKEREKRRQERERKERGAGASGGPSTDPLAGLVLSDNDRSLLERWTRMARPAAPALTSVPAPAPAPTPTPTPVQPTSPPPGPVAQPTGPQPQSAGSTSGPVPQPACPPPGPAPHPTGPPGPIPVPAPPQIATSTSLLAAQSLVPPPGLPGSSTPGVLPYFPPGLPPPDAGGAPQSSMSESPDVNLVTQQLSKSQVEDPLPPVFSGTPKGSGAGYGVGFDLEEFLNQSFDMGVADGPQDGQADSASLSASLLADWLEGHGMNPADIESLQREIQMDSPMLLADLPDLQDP
Sequence of UniProt Q9BXA7 (whole entry, looked up): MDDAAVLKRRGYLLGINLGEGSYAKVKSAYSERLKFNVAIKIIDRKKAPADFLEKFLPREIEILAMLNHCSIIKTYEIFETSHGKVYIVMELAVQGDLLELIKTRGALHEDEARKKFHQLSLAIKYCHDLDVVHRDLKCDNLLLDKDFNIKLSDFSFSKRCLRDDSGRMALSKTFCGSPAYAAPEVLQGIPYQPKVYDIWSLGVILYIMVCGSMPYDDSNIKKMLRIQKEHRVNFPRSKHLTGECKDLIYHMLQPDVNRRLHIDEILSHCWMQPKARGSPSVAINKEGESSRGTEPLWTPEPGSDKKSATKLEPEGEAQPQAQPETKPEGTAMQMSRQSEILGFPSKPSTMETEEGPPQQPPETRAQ
Sequence of UniProt Q9UL54 (whole entry, looked up): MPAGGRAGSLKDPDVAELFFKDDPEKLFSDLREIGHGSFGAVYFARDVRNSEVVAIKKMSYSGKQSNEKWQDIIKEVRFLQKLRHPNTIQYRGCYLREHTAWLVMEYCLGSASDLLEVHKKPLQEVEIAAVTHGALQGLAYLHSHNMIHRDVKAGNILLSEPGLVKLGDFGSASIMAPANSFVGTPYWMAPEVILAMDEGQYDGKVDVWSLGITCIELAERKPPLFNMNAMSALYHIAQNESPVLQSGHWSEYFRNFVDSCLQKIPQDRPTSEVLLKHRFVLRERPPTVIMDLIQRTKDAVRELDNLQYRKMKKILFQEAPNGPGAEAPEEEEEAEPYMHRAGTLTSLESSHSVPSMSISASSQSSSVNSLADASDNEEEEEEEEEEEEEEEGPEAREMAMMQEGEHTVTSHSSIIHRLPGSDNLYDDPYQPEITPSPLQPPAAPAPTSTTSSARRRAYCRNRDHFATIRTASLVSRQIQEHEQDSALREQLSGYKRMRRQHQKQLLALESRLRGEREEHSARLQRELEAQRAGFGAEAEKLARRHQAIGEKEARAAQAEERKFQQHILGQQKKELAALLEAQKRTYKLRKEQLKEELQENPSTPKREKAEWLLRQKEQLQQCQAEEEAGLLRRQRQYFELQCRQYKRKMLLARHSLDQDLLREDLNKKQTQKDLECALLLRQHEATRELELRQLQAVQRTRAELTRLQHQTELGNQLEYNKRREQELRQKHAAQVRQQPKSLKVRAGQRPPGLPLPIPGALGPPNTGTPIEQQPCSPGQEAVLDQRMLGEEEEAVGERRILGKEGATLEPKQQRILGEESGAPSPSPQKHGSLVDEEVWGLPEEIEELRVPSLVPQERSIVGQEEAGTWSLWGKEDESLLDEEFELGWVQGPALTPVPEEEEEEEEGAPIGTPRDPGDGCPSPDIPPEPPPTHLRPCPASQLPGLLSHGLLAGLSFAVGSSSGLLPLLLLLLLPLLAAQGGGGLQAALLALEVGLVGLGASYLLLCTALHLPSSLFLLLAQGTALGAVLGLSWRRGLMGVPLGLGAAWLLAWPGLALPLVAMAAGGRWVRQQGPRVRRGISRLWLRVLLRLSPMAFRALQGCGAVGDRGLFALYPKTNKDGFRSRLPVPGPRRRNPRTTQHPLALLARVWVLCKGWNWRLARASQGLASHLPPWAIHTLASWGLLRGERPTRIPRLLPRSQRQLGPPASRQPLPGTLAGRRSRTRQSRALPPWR
Sequence of UniProt Q8IY84 (whole entry, looked up): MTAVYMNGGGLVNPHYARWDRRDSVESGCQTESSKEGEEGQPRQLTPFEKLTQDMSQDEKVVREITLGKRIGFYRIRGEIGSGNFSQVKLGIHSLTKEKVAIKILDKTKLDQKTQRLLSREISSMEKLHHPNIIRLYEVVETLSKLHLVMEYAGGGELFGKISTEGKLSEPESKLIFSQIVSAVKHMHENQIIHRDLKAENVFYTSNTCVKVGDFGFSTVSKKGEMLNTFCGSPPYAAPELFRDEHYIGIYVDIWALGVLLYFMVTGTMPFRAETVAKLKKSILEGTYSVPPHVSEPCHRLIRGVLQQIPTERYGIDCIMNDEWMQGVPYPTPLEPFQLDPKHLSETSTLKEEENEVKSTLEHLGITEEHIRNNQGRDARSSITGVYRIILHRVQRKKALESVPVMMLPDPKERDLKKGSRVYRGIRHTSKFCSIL

Block 1
Target: Calcium/calmodulin-dependent protein kinase type II subunit alpha (CAMK2A, Homo sapiens, UniProt Q9UQM7)
Sequence of UniProt Q9UQM7 (whole entry, looked up): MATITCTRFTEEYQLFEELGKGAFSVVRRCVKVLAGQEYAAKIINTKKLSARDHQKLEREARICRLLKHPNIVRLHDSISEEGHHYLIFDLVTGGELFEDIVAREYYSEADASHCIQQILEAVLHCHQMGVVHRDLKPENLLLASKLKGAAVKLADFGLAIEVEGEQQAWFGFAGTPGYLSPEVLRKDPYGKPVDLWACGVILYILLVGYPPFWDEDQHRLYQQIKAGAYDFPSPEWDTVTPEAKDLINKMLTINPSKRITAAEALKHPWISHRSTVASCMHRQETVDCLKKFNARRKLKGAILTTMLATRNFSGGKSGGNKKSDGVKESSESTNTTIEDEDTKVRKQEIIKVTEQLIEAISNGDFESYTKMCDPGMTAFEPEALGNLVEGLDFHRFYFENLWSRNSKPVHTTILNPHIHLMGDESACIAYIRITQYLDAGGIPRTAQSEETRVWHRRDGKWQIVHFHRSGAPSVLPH
Read-out: enzyme activity
Action: inhibitor
Concentration: 10 µM
`C=C1C(=O)O[C@@H]2/C=C(\C)CC/C=C(\C)CC[C@@H]12` has an inhibition of -1%.
The inhibition of `COc1cc2c(cc1O)CCN1Cc3c(ccc(OC)c3OC)CC21` (stereo not shown) is reported as 45%.
`COc1cccc(N2CCN(C3=Nc4c(F)cccc4[C@H](CC(=O)O)N3c3cc(C(F)(F)F)ccc3OC)CC2)c1` has an inhibition of -12%.
For `COc1cc(O)ccc1CCC(=O)c1ccc(O)cc1`, the inhibition was -1%.
`CC(O)[C@H](C)[C@H](N)C(=O)O` (stereo partly shown) has an inhibition of 2%.

Block 2
Method: logD(dd/w) and ALogP
Notes: JT method
`CC(C)C[C@@H]1NC(=O)[C@H](C)NC(=O)[C@@H](CC(C)C)NC(=O)[C@H](C)NC(=O)[C@H](C)NC(=O)[C@H](CC(C)C)NC(=O)[C@@H](CC(C)C)NC1=O` — result for “lipophilic permeability efficiency”: 2.
`CC(C)C[C@@H]1NC(=O)[C@H](CC(C)C)NC(=O)[C@@H](C(C)C)NC(=O)[C@H](C(C)C)NC(=O)[C@H](C(C)C)NC(=O)[C@H](Cc2cscn2)NC(=O)[C@H](C)NC1=O` — result for “lipophilic permeability efficiency”: 1.95.
Under “lipophilic permeability efficiency”, `CC(C)C[C@@H]1NC(=O)[C@H](C)NC(=O)[C@H](Cc2cscn2)NC(=O)[C@@H](CC(C)C)NC(=O)[C@H](C(C)C)NC(=O)[C@H](CC(C)C)NC(=O)[C@@H](CC(C)C)NC1=O` is recorded as 2.
Under “lipophilic permeability efficiency”, `CC(C)C[C@@H]1NC(=O)[C@H](Cc2cscn2)NC(=O)[C@H](CCC(=O)N2CCCC2)NC(=O)[C@H](C)NC(=O)[C@@H](CCC(=O)N2CCCC2)NC(=O)[C@H](CC(C)C)NC(=O)[C@@H](CC(C)C)NC1=O` is recorded as 2.
Under “lipophilic permeability efficiency”, `CC(C)C[C@@H]1NC(=O)[C@H](Cc2cscn2)NC(=O)[C@H](C)NC(=O)[C@@H](CC(C)C)NC(=O)[C@@H](CCC(=O)N2CCCC2)NC(=O)[C@H](CC(C)C)NC(=O)[C@@H](CC(C)C)NC1=O` is recorded as 2.6.
For `CC(C)C[C@@H]1NC(=O)[C@H](CC(C)C)NC(=O)[C@H](CC(C)C)NC(=O)[C@H](C(C)C)NC(=O)[C@@H](CCC(=O)N2CCCC2)NC(=O)[C@H](C)NC(=O)[C@H](C)NC1=O`, “lipophilic permeability efficiency” read 2.07.
`CC(C)C[C@@H]1NC(=O)[C@@H](C)NC(=O)[C@@H](CC(C)C)NC(=O)[C@H](C)NC(=O)[C@H](C(C)C)NC(=O)[C@H](CC(C)C)NC(=O)[C@@H](CC(C)C)NC1=O` — result for “lipophilic permeability efficiency”: 2.51.
`CC(C)C[C@@H]1NC(=O)[C@H](Cc2cscn2)NC(=O)[C@H](Cc2cscn2)NC(=O)[C@H](CC(C)C)NC(=O)[C@@H](CCC(=O)N2CCCC2)NC(=O)[C@H](CC(C)C)NC(=O)[C@@H](CC(C)C)NC1=O`: “lipophilic permeability efficiency” 2.56.
`CC(C)C[C@@H]1NC(=O)[C@H](C)NC(=O)[C@H](C)NC(=O)[C@H](CCC(=O)N2CCCC2)NC(=O)[C@H](CC(C)C)NC(=O)[C@H](CC(C)C)NC(=O)[C@@H](C(C)C)NC1=O` — result for “lipophilic permeability efficiency”: 1.14.

Block 3
Target: Ribosomal protein S6 kinase beta-2 (RPS6KB2, Homo sapiens, UniProt Q9UBS0)
Sequence of UniProt Q9UBS0 (whole entry, looked up): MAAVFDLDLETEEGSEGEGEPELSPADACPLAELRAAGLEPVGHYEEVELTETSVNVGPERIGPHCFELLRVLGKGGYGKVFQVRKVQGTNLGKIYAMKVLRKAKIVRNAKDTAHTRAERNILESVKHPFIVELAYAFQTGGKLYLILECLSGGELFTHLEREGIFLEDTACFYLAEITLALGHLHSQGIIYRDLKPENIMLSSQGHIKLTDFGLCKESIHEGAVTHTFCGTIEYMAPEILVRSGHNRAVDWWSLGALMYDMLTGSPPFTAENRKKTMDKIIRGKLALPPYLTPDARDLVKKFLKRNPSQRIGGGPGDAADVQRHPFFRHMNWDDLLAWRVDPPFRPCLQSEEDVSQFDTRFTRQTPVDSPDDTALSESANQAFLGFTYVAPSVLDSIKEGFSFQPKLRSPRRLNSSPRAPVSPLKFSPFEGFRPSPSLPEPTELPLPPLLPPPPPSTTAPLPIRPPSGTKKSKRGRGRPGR
Read-out: enzyme activity
Action: inhibitor
Concentration: 0.5 µM
Reference: control
`Oc1ccc(Nc2nc(-c3ccc(Cl)cc3)cs2)cc1` has a remaining activity of 99.8%.
`CC(C)(C)n1nc(Cc2cccc3ccccc23)c2c(N)ncnc21` has a remaining activity of 92.7%.
For `Cc1cncc2cccc(S(=O)(=O)N3CCCN(C(=O)CN)C[C@@H]3C)c12`, the remaining activity was 99.3%.
`CC[n+]1c(/C=C/N(C)c2ccccc2)n(-c2ccccc2)c2ccc(-c3nc4ccccc4s3)cc21` gave a remaining activity of 93.2%.
The remaining activity of `NC(=O)c1ccc(N(C(N)=O)c2c(F)cccc2F)nc1-c1ccc(F)cc1F` is reported as 100%.
For `Fc1ccc(-c2nc3n(c2-c2ccncc2)CCS3)cc1`, the remaining activity was 85.6%.
With `Nc1nc(Nc2ccc(S(N)(=O)=O)cc2)nn1C(=O)c1c(F)cccc1F` the remaining activity was 104%.
`Cc1ccc(NC2=CC(=O)c3sc(C)nc3C2=O)cc1` gave a remaining activity of 95.2%.
`O=S(=O)(NCCNC/C=C/c1ccc(Br)cc1)c1cccc2cnccc12` has a remaining activity of 71.9%.
With `Nc1nccc(-c2c(-c3ccc(F)cc3)ncn2C2CCNCC2)n1` the remaining activity was 90.9%.
`Cc1cc(Nc2nc(-c3ccccc3)nc3ccccc23)n[nH]1` has a remaining activity of 99.7%.

Block 4
SMILES: Cc1c(NC(=O)c2cc(C(N)=O)nc3cc(F)ccc23)c(C(F)(F)F)nn1Cc1ccc(C#N)cc1
Method: competition with immobilised ligand
Concentration: 1 µM
Non-receptor tyrosine-protein kinase TYK2, JH2 (TYK2, Homo sapiens, UniProt P29597); cell-free assay — remaining binding: 77%.
The remaining binding was 95% (NEK1 (Homo sapiens, UniProt Q96PY6); cell-free assay).
The remaining binding was 85% (MAPK10 (Homo sapiens, UniProt P53779); cell-free assay).
The remaining binding was 70% (PIK3CA (Homo sapiens, UniProt P42336, C420R); cell-free assay).
The remaining binding was 100% (Tyrosine-protein kinase ABL1, non-phosphorylated (ABL1, Homo sapiens, UniProt P00519, Q252H); cell-free assay).
The remaining binding was 100% (PRKD1 (Homo sapiens, UniProt Q15139); cell-free assay).
PIM3 (Homo sapiens, UniProt Q86V86); cell-free assay — remaining binding: 100%.
It gave 95% for remaining binding (MAPK7 (Homo sapiens, UniProt Q13164); cell-free assay).
The remaining binding was 95% (TSSK1B (Homo sapiens, UniProt Q9BXA7); cell-free assay).
The remaining binding was 85% (TAOK2 (Homo sapiens, UniProt Q9UL54); cell-free assay).
It gave 100% for remaining binding (PIK3CA (Homo sapiens, UniProt P42336); cell-free assay).
PHKG1 (Homo sapiens, UniProt Q16816); cell-free assay — remaining binding: 100%.
NIM1K (Homo sapiens, UniProt Q8IY84); cell-free assay — remaining binding: 91%.
For MST1R (Homo sapiens, UniProt Q04912); cell-free assay: remaining binding read 76%.
Tyrosine-protein kinase ABL1, phosphorylated (ABL1, Homo sapiens, UniProt P00519, F317L); cell-free assay — remaining binding: 81%.
HUNK (Homo sapiens, UniProt P57058); cell-free assay — remaining binding: 77%.
For MAP3K13 (Homo sapiens, UniProt O43283); cell-free assay: remaining binding read 84%.
PIK3C2G (Homo sapiens, UniProt O75747); binding — remaining binding: 61%.

Some of these lines once more (block 3):
The remaining activity of `NC(=O)c1ccc(N(C(N)=O)c2c(F)cccc2F)nc1-c1ccc(F)cc1F` is reported as 100%.
For `Fc1ccc(-c2nc3n(c2-c2ccncc2)CCS3)cc1`, the remaining activity was 85.6%.
With `Nc1nc(Nc2ccc(S(N)(=O)=O)cc2)nn1C(=O)c1c(F)cccc1F` the remaining activity was 104%.
`Cc1ccc(NC2=CC(=O)c3sc(C)nc3C2=O)cc1` gave a remaining activity of 95.2%.
`O=S(=O)(NCCNC/C=C/c1ccc(Br)cc1)c1cccc2cnccc12` has a remaining activity of 71.9%.
With `Nc1nccc(-c2c(-c3ccc(F)cc3)ncn2C2CCNCC2)n1` the remaining activity was 90.9%.
